# Measurements of several laboratories.
# Parts stem from different laboratories: compare values within a part only.

# Block 1 — technique: protein binding microarray; form: double-stranded DNA, one strand shown; matrix: in vitro; tested at: not given; relative to: not given; direction: higher = stronger binding
# Target: Histone acetyltransferase KAT6A, winged helix 1, GST fusion (KAT6A, Homo sapiens, UniProt Q92794, residues 1-85)
# Setting: 8-mer, flanks averaged, mean of 2 arrays, mostly near background
# Residues (chain): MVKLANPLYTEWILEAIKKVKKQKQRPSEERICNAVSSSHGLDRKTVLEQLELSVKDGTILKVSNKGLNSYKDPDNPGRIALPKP
Oligonucleotide,E-score
CAATACAC,-0.0315
ACCATGAC,0.0681
TGGGCCAA,-0.197
CCGGACGG,0.41
TCGGTAAA,0.00637
GACAGTGC,-0.0283
ATTAGTCA,-0.0558
CCACTCTC,-0.125
CCACCTCA,-0.246
AATCGTTG,-0.0762
GCCGTAAA,0.393
ATTGAGAA,-0.0867
CTACGTGA,-0.188
CCAACGAA,-0.167
ACCTCGAG,-0.112
GCGCAGTA,0.3

# Block 2 — technique: RNA Bind-n-Seq; form: RNA; matrix: in vitro; tested at: 200 nM; setting: whole 134-nt RNA, ends assumed; with: 150 mM LiCl; relative to: input library; direction: higher = stronger binding; all molecules: 7-deaza-guanosine replaces G
# Target: Fragile X messenger ribonucleoprotein 1, C-terminal low-complexity region (Fmr1, Mus musculus, UniProt P35922)
# All sequences stand within: GGGAGUUCUACAGUCCGACGAUC … UGGAAUUCUCGGGUGUCAAGG
Oligonucleotide,log2 enrichment
ACCGUGCAGGUGGGCAUCUUUGGGAAGUGGGGCAAGGGGGGGAUAGGGAGGGGGGUAACACUUUGGGAACAGGUGGUCCCAGGUCGUUUC,1.31
ACCAUGCAGGUGGGCAUGUUUGGGAAGUGGGGCAAGGGGGGGAUAGGGAGGGGGGUAACACUUUGGGAACAGGUGGUCCCAGGUCGUUUC,1.35
AAGUCCUGUGCUACACAUCGUAUGUACCGAAUCGGAAAAAAAGGAAAAAAAGGAGGAAAGUAUUAUGUUACGCCGUUCGGAUCUGCACUU,-1.17
UCAAGUCCUGUGCUACACAUCGUAUGUACCGAAUCGGGUUUGGUUUGGUUUGGGGAAAGUAUUAUGUUACGCCGUUCGGAUCUGCACUUC,-1.46
CUGUGCUACACAUCGUAUGUACCGAAUCGGGUUUUUUUGGGAAAAAAAGGGUUUUUUUGGGAAAGUAUUAUGUUACGCCGUUCGGAUCUG,-2.53
UCAAGUCCUGUGCUACACAUCGUAUGUACCGAAUCGGAAAGGGAAAGGGAAAGGAAAGUAUUAUGUUACGCCGUUCGGAUCUGCACUUCC,-0.465
AGUCCUGUGCUACACAUCGUAUGUACCGAAUCGGGGAAAAAGGGGAGGGGUUUGGGGAAAGUAUUAUGUUACGCCGUUCGGAUCUGCACU,-0.714
UGGGAGGUGGAUUUUGUUUAUUUUUUUAGCUCAUUUCCAGGGGUGGGAAUUUUUUUUUAAUAUGUGUCAUGAAUAGAGUUGUUUUUGAAA,0.502
CCUCAAGUCCUGUGCUACACAUCGUAUGUACCGAAUCGGUGGUUUGGAAAGGAAAGUAUUAUGUUACGCCGUUCGGAUCUGCACUUCCAG,0.578
AGUCCUGUGCUACACAUCGUAUGUACCGAAUCAAAUUUUUAAACCCCCAAACCCAAAAAAGUAUUAUGUUACGCCGUUCGGAUCUGCACU,1.03
CCUCAAGUCCUGUGCUACACAUCGUAUGUACCGAAUCGGGGUGGGGUGGGUGGAAAGUAUUAUGUUACGCCGUUCGGAUCUGCACUUCCA,-1.01

# Block 3 — technique: RNA Bind-n-Seq; form: RNA; matrix: in vitro; tested at: not given; relative to: input RNA pool; direction: higher = stronger binding
# Target: RING finger protein unkempt homolog, zinc fingers 1-6, GST-SBP tag (UNK, Homo sapiens, UniProt Q9C0B0, residues 30-357)
# Setting: RNA with constant flanks, human and mouse sites, ends assumed
# All sequences stand within: GGGAGUUCUACAGUCCGACGAUC … CAACAGAGGAUUGAGCAUCA
# Residues (chain): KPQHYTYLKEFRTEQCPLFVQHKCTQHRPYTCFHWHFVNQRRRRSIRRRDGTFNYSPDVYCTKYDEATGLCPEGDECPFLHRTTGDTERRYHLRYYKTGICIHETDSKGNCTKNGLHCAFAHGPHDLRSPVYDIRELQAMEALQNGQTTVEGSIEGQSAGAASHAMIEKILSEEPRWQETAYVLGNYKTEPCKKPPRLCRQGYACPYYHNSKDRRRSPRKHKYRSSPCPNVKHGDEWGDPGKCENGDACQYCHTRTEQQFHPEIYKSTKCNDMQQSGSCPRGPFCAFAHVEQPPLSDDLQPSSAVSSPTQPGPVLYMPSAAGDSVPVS
Oligonucleotide,bound/input enrichment [ratio]
GGAUUGGCAGAUGCAGGUCUAGAUUUAAAAGGAACUUGCAUUAGUGAAAGUGAAGAAUGUGAUUUCUCCACUGUUAUAGACACACCAGCAGCAAAUUAUCUAUCUAAUGGUUGUGAUUCC,0.75
CAUCAACAGUAUGUGCAACGUAUAGAGAAACAGUUUCUUUUGUAUGCCUACUGGAUAGGCUUAGGAAUUUUGUCUUCUGUUGGGCUUGGAACAGGGCUGCACACCUUUCUGCUUUAUCUG,0.717
UAUGCAGAGCGUUAUGAGACAUGGGAAGAUGAUCAAAGCCCACCCUACCAUUAUAAUACCCAUUAUUCAACAGCAACAUCUACUUUAUCCUGGCUUGUUCGAAUUGAACCUUUCACAACC,0.253
GUUGGCUUGUCAGAUGAACUGGCUAAACUGGAUGCAUUUGUAGAAGGAGUGGUUAAGAAAGUAGCUCAAUACAUGGCUGAUGUAUUGGAAGAUAGCAAAGACAAAGUUCAAGAGAAUCUG,0.609
UGUGAAAUCAGUAGGUUAUCUUUAAUCUUUACACUACAUGCAGAUCCAUAGUAUCCUUUGUAGUGUUGUAAAUACUUUUGCUUUGAAAACUUUUUCAUUGUCCUAAAUCACCCUGACUCU,0.571
UUGGGCACAGGAUCUGGUCUUAACUUAAGAAUGGCUGGACCUCAAGGCCUCGAUCUUGCCCCCAUUCUAAGAGCAGCAGGUCUUUUAGGAGCAAAUUCAGCUUCUUUCUCACAGGCUUCU,0.0824
GUAUGGUUUUUGCUUACCCUUUCAAGUCACAGGUAAAUGUUUCAUAAGGAAAUCACAGUUUUUAGAUUCCCUGUUAUUGCUAGUGUGGGACCUGUAGCUGUGGGGUCUGACAUAUUUAUU,0.66
CCCACGGCCGUUGGUCCGGGCGGGUGAGGGAGAAAGUGAGACUUGGUGUCAUCACCAUCCAUUGUCAGAAGGGGAGGAAAUUGGAAUCCAGCAGCGGCGAGCAGCAGCUGGGCGGUCACA,0.236
CAGAUCCGAUGUCUCUGCCAGCUUGGGGCUGAAGUUACCGUGGUACCCUGGGACCACGAGUUAGACAGUCAGAAAUAUGACGGUCUCUUCCUAAGUAAUGGACCCGGUGACCCUGCCUCU,0.191
AUUCAUUUUCUUAUCUCUCCAUUAAAGCACUAAUAUUUUAUACAGUUUCAGCAAGCAGGUUGACCAGUAUAUUUUAUGAACUCAGUUCCUAAUAUAUGGCUACUGGCUUUAUGCAUAGGA,0.527
CUGGGGAGUGUCCAGGGUUGGACAAAGCUCCACAGUGACUCUUUACGUAUGGAUGGGGACAUAGAUAAGUUUAUAUCUAGGUGAAUACUAACUUGUUCCUUACUAUGAAUUCUAAAGUAC,0.0901

# Block 4 — technique: RNA Bind-n-Seq; form: RNA; matrix: in vitro; tested at: 365 nM; relative to: no-protein control; direction: higher = stronger binding
# Target: RNA binding protein fox-1 homolog 2, RRM domain, GST-SBP tag (RBFOX2, Homo sapiens, UniProt O43251-10, residues 100-194)
# Setting: natural RNA segment, single round, ends assumed
# All sequences stand within: GGGAGUUCUACAGUCCGACGAUC … UGGAAUUCUCGGGUGCCAA
# Target sequence (chain): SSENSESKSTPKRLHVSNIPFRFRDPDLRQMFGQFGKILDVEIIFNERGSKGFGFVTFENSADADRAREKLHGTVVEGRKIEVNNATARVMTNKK
Oligonucleotide,RBNS enrichment (R)
AAAUGAGCAGAGGCCUGUAGGUAGCACCUGAGGGUCCAGGGAGGUAUAUGGACAGGCCUGCAUCACAGCAUCCUAGACUUCUUUGGAGACCCGUUUGAUAGUACUUUCAG,0.735
CCCAUGCACUGUGCUGCUUCCUGAGCCUGGCCCUGCAUCCUCAUAGAGGUGCCGGGUUCCUAUUGGUUAGUUGGUUGUUUUUCCGUCUGAGUGAAUUUUUGCCAGUCUUG,0.784
GGGCCUUUGAAAUAUAGGUAUGCACCUGAGGUUGGGGGAGGGUCUGCACUCCCAAACCCCAGCGCAGUGUCCUUUCCCUGCUGCCGACAGGAACCUGGGGCUGAACAGGU,0.52
CAGAUUCACCAGUCUGCCCUGUCACGUAGUUGAAGGAGUUGCAUUUAUCUUUCUGGCUCCUAAUUCCUUUAAAAUUACAUUUGUUGCAGAACCUCCACAAGGCUAAAUAA,14.1
GGAGUGGAAGUGGCCAGACCAUUUAGACGGACAGGGUCCUCACCCUACCCCUUUCCUGUGAGGCAGGGGUGGUGGUGGAGUUGCUGGAGGUAGAGGAGCUAUGUGGAGCA,1.25
GUAUAAUCUGGUCAGCUUGGACAAUUCCUGCCUCAUUUCCUAUUAAUGUUAGUUUGGAUAAAAAUAAUUAGCAUUUAGUAAUUGCCUUGUUUCUGAGUUUAGCCUAUAUA,0.452
GUGGACAGCUUUUCCGUGGAAAUUCAAGGCAUCUGUAUUAGGCAAAUGUGAGUGCCCUUGAUCUUGUAUUGAUCAGUGCCAAUGUACUGGGAAAGCAGGUACCCCAGUGA,1.15
UCCUUGCUGACCUCCUGUCUCCCUAGAGCACAAACAGGAGGGGGCAAGCCCCUUGAAGGUUUGGAUGGGAUGAGAUGGACAGUUACUGUAAUGAAGGACAAAGGGAACCA,1.19
CACAAGGAGGCAUGCUUGCCCUUCUCCUUGGGAUGGCAGCUGGUGAGCUGAGGAGGCUGGCCUAGAGGAAAAAAGGCAGCAGACAGUGAAGAGGCCUUCCUCCCUCCCUG,11
CGUUGUAAGUAACUGAGGUCCAUGUGGAAAAGAUGGCUUGUAUUUUUGAAAUGAUCACAACACACUGUGCAGAAGUGGACAGAUGUUCCAUGGCGUUUGGUUCUCCUUCC,0.575
AGGGGAAGGUACCGAUAUCAUUGAGCUAUUUAAAGUUGCCAGUUUGGGCUCCAGUAAUGCUUUCUGGUGGGUAAAAUUCCACAUUCAGGCCACGAGAGCAUCUACAGUUU,0.308
GCUGGGGGAGGGAGGAGUCCACGCAUCCUGAUGCUGCCUGGAAGCUUAUUUUCCCGUGGCCAGGACGCAUUUCUCUGAGUGGAAACAGGUUCUUGCAUGUGGAUGUGUGU,7.19

# Excerpt of the above (block 4):
Oligonucleotide,RBNS enrichment (R)
CCCAUGCACUGUGCUGCUUCCUGAGCCUGGCCCUGCAUCCUCAUAGAGGUGCCGGGUUCCUAUUGGUUAGUUGGUUGUUUUUCCGUCUGAGUGAAUUUUUGCCAGUCUUG,0.784
GGGCCUUUGAAAUAUAGGUAUGCACCUGAGGUUGGGGGAGGGUCUGCACUCCCAAACCCCAGCGCAGUGUCCUUUCCCUGCUGCCGACAGGAACCUGGGGCUGAACAGGU,0.52
CAGAUUCACCAGUCUGCCCUGUCACGUAGUUGAAGGAGUUGCAUUUAUCUUUCUGGCUCCUAAUUCCUUUAAAAUUACAUUUGUUGCAGAACCUCCACAAGGCUAAAUAA,14.1
GGAGUGGAAGUGGCCAGACCAUUUAGACGGACAGGGUCCUCACCCUACCCCUUUCCUGUGAGGCAGGGGUGGUGGUGGAGUUGCUGGAGGUAGAGGAGCUAUGUGGAGCA,1.25
GUAUAAUCUGGUCAGCUUGGACAAUUCCUGCCUCAUUUCCUAUUAAUGUUAGUUUGGAUAAAAAUAAUUAGCAUUUAGUAAUUGCCUUGUUUCUGAGUUUAGCCUAUAUA,0.452
GUGGACAGCUUUUCCGUGGAAAUUCAAGGCAUCUGUAUUAGGCAAAUGUGAGUGCCCUUGAUCUUGUAUUGAUCAGUGCCAAUGUACUGGGAAAGCAGGUACCCCAGUGA,1.15
UCCUUGCUGACCUCCUGUCUCCCUAGAGCACAAACAGGAGGGGGCAAGCCCCUUGAAGGUUUGGAUGGGAUGAGAUGGACAGUUACUGUAAUGAAGGACAAAGGGAACCA,1.19
